Measurements gathered from unrelated publications.
Protocols differ between the studies behind these lines. ± marks the error that the study gave.
AR: Androgen receptor (AR, Homo sapiens, UniProt P10275)
Chain of UniProt P10275 (whole entry, unmodified, looked up): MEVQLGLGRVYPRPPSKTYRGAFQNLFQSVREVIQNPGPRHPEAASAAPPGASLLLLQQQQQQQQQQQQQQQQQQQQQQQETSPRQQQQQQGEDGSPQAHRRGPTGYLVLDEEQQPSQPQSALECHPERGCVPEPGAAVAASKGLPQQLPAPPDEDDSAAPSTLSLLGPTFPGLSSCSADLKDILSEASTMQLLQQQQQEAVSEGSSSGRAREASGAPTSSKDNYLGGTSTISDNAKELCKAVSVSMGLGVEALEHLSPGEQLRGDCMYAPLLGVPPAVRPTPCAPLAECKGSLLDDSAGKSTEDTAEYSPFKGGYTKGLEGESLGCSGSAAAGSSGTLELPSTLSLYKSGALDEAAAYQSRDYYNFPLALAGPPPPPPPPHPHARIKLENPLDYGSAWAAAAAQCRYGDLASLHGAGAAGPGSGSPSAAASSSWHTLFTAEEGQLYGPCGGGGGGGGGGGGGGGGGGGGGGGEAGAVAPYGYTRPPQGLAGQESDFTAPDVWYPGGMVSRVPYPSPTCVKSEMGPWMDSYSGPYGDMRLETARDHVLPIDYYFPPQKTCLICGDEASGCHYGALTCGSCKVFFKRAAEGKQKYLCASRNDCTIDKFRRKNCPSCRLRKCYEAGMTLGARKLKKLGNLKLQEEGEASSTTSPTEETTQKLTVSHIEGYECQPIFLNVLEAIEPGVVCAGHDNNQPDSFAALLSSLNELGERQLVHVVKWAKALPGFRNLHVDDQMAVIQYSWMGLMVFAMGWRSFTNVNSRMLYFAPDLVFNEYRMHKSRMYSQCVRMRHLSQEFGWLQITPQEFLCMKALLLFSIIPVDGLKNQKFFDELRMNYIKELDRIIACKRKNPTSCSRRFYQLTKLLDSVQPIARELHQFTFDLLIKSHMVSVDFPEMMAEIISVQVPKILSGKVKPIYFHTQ

Compound	target	assay	test system	conditions	endpoint	value
O=[N+]([O-])c1cc([N+](=O)[O-])c2ccccc2c1	Androgen receptor (AR, Homo sapiens, UniProt P10275, Q868H)	antagonist	–	together with: R1881 2 nM	IC50	17.4 µM
Clc1ccc(-c2ccccc2Cl)cc1	AR	reporter gene, antagonist	–	24 h, together with: DHT 2 nM	IC50	0.9 µM
C[C@]12C[C@H](O)[C@H]3[C@@H](CCC4=CC(=O)CC[C@@]43C)[C@@H]1CC[C@@H]2O	AR	cell-based	–	–	EC50	30 µM
CCCC1COC(Cn2cncn2)(c2ccc(Cl)cc2Cl)O1 (stereo not shown)	AR	–	human cells	–	IC50	8.22 µM
Oc1ccc(-c2cc(Cl)ccc2Cl)c(Cl)c1	AR	reporter gene, antagonist	–	24 h, together with: DHT 2 nM	IC50	3.9 µM
COc1cc(Nc2ncc(F)c(Nc3ccc4c(n3)NC(=O)C(C)(C)O4)n2)cc(OC)c1OC	AR	–	–	–	IC50	> 10 µM
CC1(C)NC(=O)N(c2ccc(F)c(C(F)(F)F)c2)C1=O	AR	transcriptional activity, antagonist, luciferase reporter	LAPC4	24 h, together with: 0.3 nM DHT	IC50	7.7 ± 4.1 µM
COc1ncccc1-c1cnn2ccc(N3CCN(C(=O)OC(C)C)CC3)nc12	AR	liability screen	–	–	IC50	> 150 µM
Oc1ccc(-c2ccc(Cl)cc2)c(Cl)c1	AR	reporter gene, antagonist	–	24 h, together with: DHT 2 nM	IC50	0.7 µM
C[C@@H]1[C@@H](c2ccc(Cl)cc2)SC(=O)N1C(=O)NC1CCCCC1	AR	reporter gene, agonist	yeast androgen screen	–	EC50	> 100 µM
C[C@]12CC[C@H]3[C@@H](CCC4=CC(=O)[C@H](O)C[C@@]43C)[C@@H]1CC[C@@H]2O	AR	cell-based	–	–	EC50	5.6 µM
Oc1cc(Cl)cc(-c2cccc(Cl)c2)c1	AR	reporter gene, antagonist	–	24 h, together with: DHT 2 nM	IC50	1.6 µM
COC(=O)N(C(=O)N1COC2(C(=O)OC)Cc3cc(Cl)ccc3C2=N1)c1ccc(OC(F)(F)F)cc1 (racemic)	AR	reporter gene, agonist	yeast androgen screen	–	EC50	> 100 µM

Some of these lines once more:
Compound	target	assay	test system	conditions	endpoint	value
C[C@]12C[C@H](O)[C@H]3[C@@H](CCC4=CC(=O)CC[C@@]43C)[C@@H]1CC[C@@H]2O	AR	cell-based	–	–	EC50	30 µM
